Measurements gathered from unrelated publications.
Compare with care: the assays were run in different laboratories. Several values in a cell are separate wells, animals, samples, runs or records. ± gives the spread as reported.

Structure (SMILES) | test | system | conditions | scale | quantity | result
CC(C)[C@H](NC(=O)[C@H](Cc1c[nH]c2ccccc12)NC(=O)[C@H](Cc1ccccc1)NC(=O)[C@@H](NC(=O)[C@@H](NC(=O)[C@H](CCCCN)NC(=O)[C@@H](N)CCCCN)C(C)C)C(C)C)C(=O)N[C@@H](CCCCN)C(=O)N[C@@H](Cc1ccccc1)C(=O)N[C@@H](CCCCN)C(N)=O | ELISA, refers to: IFN-γ | mouse, blood | intravenous, 500 µg/kg, 5 days | – | cytokine level | 12.7 ± 1.53 pg/mL
COC(=O)C[C@](O)(CCCC(C)(C)OC(C)=O)C(=O)O[C@@H]1C(OC)=C[C@]23CCCN2CCc2cc4c(cc2[C@H]13)OCO4 | – | CD1 mouse, spleen | subcutaneous, 1 mg/kg, 24 h, below quantification limit 1.00 ng/mL | – | tissue concentration | not detected
CC(C)[C@H](NC(=O)CNC(=O)[C@H](CCC(N)=O)NC(=O)[C@H](C)N)C(=O)O | – | human | intravenous infusion, 45 mg/kg/h, 2 h infusion | – | subjects given concomitant medication | 0%
CC(C)C[C@H](NC(=O)CNC(=O)[C@H](CCC(=O)O)NC(=O)[C@H](CCCCN)NC(=O)[C@H](CC(C)C)NC(=O)[C@H](C)NC(=O)[C@H](C)NC(=O)CNC(=O)[C@H](C)NC(=O)[C@H](CCCCN)NC(=O)[C@H](CCC(=O)O)NC(=O)[C@H](CC(C)C)NC(=O)[C@H](CCCCN)NC(=O)[C@H](CCCCN)NC(=O)[C@H](CC(C)C)NC(=O)[C@H](CC(C)C)NC(=O)[C@H](CCCCN)NC(=O)[C@H](Cc1c[nH]c2ccccc12)NC(=O)[C@@H](N)CCCCN)C(=O)N[C@@H](CC(C)C)C(=O)N[C@@H](CCCCN)C(=O)N[C@@H](C)C(=O)NCC(=O)N1CCC[C@H]1C(=O)N[C@@H](C)C(=O)N[C@@H](CC(C)C)C(=O)N[C@@H](C)C(=O)N[C@@H](CC(C)C)C(=O)N[C@@H](CC(C)C)C(=O)NCC(=O)N[C@@H](C)C(=O)N[C@@H](C)C(=O)N[C@@H](C)C(=O)N[C@@H](C)C(=O)N[C@@H](CC(C)C)C(=O)N[C@@H](C)C(=O)N[C@@H](CCCCN)C(N)=O | circular dichroism | POPC/POPG 1:1 vesicles | 20 µM | – | helicity | 70%
O=C(NCCCCn1ccc2ccccc21)Oc1ccccc1 | – | rat liver S9 fraction | 30 min, with: NADPH | – | parent remaining | 53 ± 5%
[2H]C([2H])([2H])C([2H])([2H])C([2H])([2H])OC(C(=O)OC1CCNCC1)(c1ccccc1)c1ccccc1 | refers to: diarrhea | healthy Japanese male | oral, 10 mg, 16 days, multiple ascending dose | – | adverse events | 14.3%
COc1cc(NC(=O)C(=O)c2c(C)n(Cc3ccc(Cl)cc3)c3ccc(C)cc23)ccn1 | – | female cynomolgus monkey, plasma | intravenous, 1 mg/kg | – | C0 | 2880 ng/mL and 2610 ng/mL and 2490 ng/mL and 2600 ng/mL and 2210 ng/mL
CC[C@@H]1C[C@]1(NC(=O)[C@@H]1C[C@@]2(CN1C(=O)[C@@H](NC(=O)[C@@H](NC(=O)[C@@H]1CCCCN1C(C)C)C1CCCCC1)C(C)(C)C)C(C)(C)C21CCC1)C(=O)NS(=O)(=O)N1CCCC1 | refers to: abdominal pain | healthy human | oral, 10 mg, with: ritonavir 100 mg | – | subjects with adverse event | 0%
CCc1c2c(nc3ccc(OC4OC(C(=O)O)C(O)C(O)C4O)cc13)-c1cc3c(c(=O)n1C2)COC(=O)C3(O)CC (stereo not shown) | – | human patients, plasma | intravenous, 3 mg/m^2 of parent drug | – | Cmax | 9 ng/mL
CC(C)C[C@H](NC(=O)[C@H](Cc1ccccc1)NC(=O)CNC(=O)C/C=C(\F)[C@@H](N)Cc1ccc(O)cc1)C(=O)O | – | BALB/c mice, brain | oral, 400 mg/kg | – | time to undetectable level | ≤ 10 min
CCN1CCCC1CNC(=O)c1cc(Br)cc(OC)c1O[11CH3] (stereo not shown) | – | rhesus monkey, cerebellum | dose not given, 80 min, decay-corrected | reference: [18F]fallypride, higher than reference | cerebellar concentration difference | 70%
NCCCC[C@H](NC(=O)[C@H](Cc1ccccc1)NC(=O)[C@H](CCCCN)NC(=O)[C@H](Cc1ccccc1)NC(=O)[C@H](CCC(=O)O)NC(=O)[C@H](Cc1ccccc1)NC(=O)[C@H](CCC(=O)O)NC(=O)[C@@H](N)Cc1ccccc1)C(=O)O | RP-HPLC | cell-free hydrogel in medium | day 6, 10% FBS | reference: day 0 | intact peptide remaining | 12.6 ± 0.2%
CC[C@H](C)[C@@H]1NC(=O)[C@H](CCCCN)NC(=O)[C@H](CCCCN)NC(=O)[C@H](Cc2ccc(O)cc2)NC(=O)[C@H](CC(C)C)NC(=O)[C@@H]2CCCN2C(=O)[C@H](C)NC(=O)CNC(=O)CNC(=O)[C@H](CO)NC(=O)CNC(=O)CNC(=O)[C@H](CO)NC(=O)[C@H](CCC(=O)O)NC(=O)[C@H](CC(C)C)NC(=O)[C@H](CC(C)C)NC(=O)[C@H](CCCCN)NC(=O)[C@H](CCCCN)NC(=O)[C@H]([C@@H](C)CC)NC(=O)[C@H]([C@@H](C)CC)NC(=O)[C@H](CCCCN)NC(=O)[C@H](CCCCN)NC(=O)[C@H](Cc2ccc(O)cc2)NC(=O)[C@H](CC(C)C)NC(=O)[C@@H]2CCCN2C(=O)[C@H](C)NC(=O)CNC(=O)[C@@H]2CSSC[C@H](NC(=O)[C@H](CC(C)C)NC(=O)[C@H](CCCCN)NC(=O)[C@H](CCCCN)NC(=O)[C@H]([C@@H](C)CC)NC1=O)C(=O)N[C@@H](CCC(=O)O)C(=O)N[C@@H](CO)C(=O)NCC(=O)N2 | – | 25% human serum | 50 µM, 24 h | reference: 0 h control | remaining intact peptide | 58.6 ± 1.5%
C[C@H]1C(OC(=O)C(Cl)Cl)O[C@@H]2O[C@@]3(C)CC[C@H]4[C@H](C)CCC1[C@@]24OO3 (stereo partly shown) | – | Tg(fli1:EGFP) zebrafish embryos | 10 µg/mL, up to 48 hpf | – | dead embryos | 0 count
COC(=O)C=CCCC(NC(=O)c1ccncc1C(=O)O)C(=O)NC(C(=O)N1CC(=O)CC1C(=O)NC(C(=O)NC(C(N)=O)C1CCCCC1)C1CCCCC1)C(C)(C)C (stereo not shown) | – | New Zealand White rabbits, male, plasma | intravenous bolus plus infusion, dose not given, 15 min, at initiation of stasis | – | plasma concentration | 11.8 ± 1.2 µM
COc1ccc(NC(=O)Cn2c(=O)c3ccccc3n(CC(=O)Nc3cc([125I])c(OC)cc3OC)c2=O)cc1 | – | rat, liver | intravenous, 5 min | – | tracer uptake | 2.2 %ID/g

Structure (SMILES) | test | system | conditions | scale | quantity | result
[3H]c1sc(C)nc1C=C(C)C1CC2C(CCCC(C)C(O)C(C)C(=O)C(C)(C)C(O)CC(=O)O1)N2CCO (stereo not shown) | – | CD2F1 mouse, tumour-bearing, plasma | intravenous, 1.2 mg/kg | – | AUC | 645 ± 82.6 ng·h/mL
CNC(=O)C1CCN(c2ccccc2NC(=O)c2ccc(-c3cc(O)ccc3C)c(C)n2)CC1 | metabolic stability | mouse, liver microsomes | 2 µM | – | microsomal CLint | 156 µL/min/mg
CC[C@H](C)[C@H](NC(=O)[C@H](CC(=O)O)NC(=O)[C@H](CO)NC(=O)[C@H](CCC(N)=O)NC(=O)[C@H](C)NC(=O)[C@H](CC(=O)O)NC(=O)[C@H](CCC(=O)O)NC(=O)[C@H](Cc1c[nH]cn1)NC(=O)[C@H](Cc1ccc(O)cc1)NC(=O)[C@H](C)NC(=O)[C@H](CC(=O)O)NC(=O)[C@H](CCC(=O)O)NC(=O)[C@H](Cc1c[nH]cn1)NC(=O)[C@H](Cc1ccc(O)cc1)NC(=O)[C@H](C)NC(=O)[C@H](CC(=O)O)NC(=O)[C@H](CCC(=O)O)NC(=O)[C@H](Cc1c[nH]cn1)NC(=O)[C@H](Cc1ccc(O)cc1)NC(=O)[C@H](C)NC(=O)[C@H](CC(=O)O)NC(=O)[C@H](CCC(=O)O)NC(=O)[C@H](Cc1c[nH]cn1)NC(=O)[C@H](Cc1ccc(O)cc1)NC(=O)[C@H](C)NC(=O)[C@H](CC(=O)O)NC(=O)[C@H](CCC(=O)O)NC(=O)[C@H](Cc1c[nH]cn1)NC(=O)[C@@H](N)Cc1ccc(O)cc1)C(=O)N[C@H](C(=O)N[C@@H](C)C(=O)N[C@@H](Cc1c[nH]cn1)C(=O)N[C@@H](CC(C)C)C(=O)N[C@@H](CC(C)C)C(=O)O)C(C)C | – | normal mouse, blood | dose not given | – | LY share of white cells | 85.7 ± 3%
O=C(NCCNCCO)c1cn(Cc2ccccc2)c2cc(OCc3ccc(C(F)(F)F)cc3)c(Cl)cc2c1=O | metabolic stability | male CD-1 mouse, liver microsomes | 1 µM | – | microsomal CLint | < 11.6 µL/min/mg
NC(=S)N/N=C/c1ccc(OCc2ccccc2)cc1 | – | PAMPA-BBB | pH 7.4 | – | Papp | 4.03 ×10⁻⁶ cm/s
O=C(CN1CCN(c2cc3c(cc2F)c(=O)c(C(=O)O)cn3C2CC2)CC1)Nc1ccc(Cl)cc1 | – | mouse, plasma | intravenous, 1.25 mg/kg | – | MRT | 8.2 h
C[C@H](NCc1ccc(-c2ccc(C(F)(F)F)cc2)cc1)C(N)=O | – | Sprague Dawley rat | oral, 1000 mg/kg single dose | – | toxicity | not toxic
CC[C@H](C)C(=O)N1CCC(NC(=O)Nc2ccc(OC(F)(F)F)c(F)c2)CC1 | – | healthy volunteers, both sexes | oral, 8 mg single dose, fed state | – | participants with any Moderate TEAE | 0%
CN(C)C(CNC(=O)Nc1cc(C(F)(F)F)ccc1N1CCOCC1)c1ccncc1 (stereo not shown) | – | mouse, serum | intraperitoneal, 240 mg/kg single dose | – | serum iron | 139 µg/dL
[11CH3]n1c(=O)n(CCCO)c(=O)c2c1nc(Oc1cccc(OC(F)(F)F)c1)n2Cc1ccc(Cl)cc1 | ex vivo biodistribution | Sprague Dawley rat, kidney | 5 min post injection | – | tracer uptake | 2.59 ± 0.5 %ID/g
N=C(N)NCc1ccc(C(=O)NCCCC[C@H](NC(=O)N[C@@H](CCC(=O)O)C(=O)O)C(=O)O)cc1[211At] | – | SCID mouse, PC-3 xenografts, muscle | 2 h | – | tissue uptake | 0.34 ± 0.08 %ID/g
CC(C)C[C@@H](/C=C/C(F)(F)C(=O)NC1CC(C)(C)N([O])C(C)(C)C1)NC(=O)OC(C)(C)C | metabolic stability | male mouse, liver microsomes | 1 h | – | compound remaining | 27%
O=c1cc(-c2ccccc2)oc2c(Br)c(O)c(O)c(O)c12 | – | C57BL/6 mouse, plasma | po, 250 mg/kg | – | AUC extrapolated percentage | 5.3 ± 4.3%
CCCCCCCCCCCCC(=O)O.O=C1CCCC2C3CCCN4CCCC(CN12)C34 (stereo not shown) | shake-flask | simulated intestinal fluid | pH 6.8, 25 °C | – | log octanol-water partition coefficient | -0.07
CC[C@H](C)[C@H](NC(=O)[C@H](Cc1ccccc1)NC(=O)[C@H](CC(=O)O)NC(=O)[C@H](CCCN)NC(=O)[C@H](Cc1ccccc1)NC(=O)[C@H](Cc1ccccc1)NC(=O)[C@H](CCCCN)NC(=O)[C@H](CN)NC(=O)[C@H](CC(C)C)NC(=O)[C@H](CCCNC(=N)N)NC(=O)[C@H](CCSC)NC(=O)[C@H](C)N)C(=O)N[C@@H](CC(C)C)C(=O)N[C@@H](CCC(N)=O)C(=O)N[C@@H](CCCNC(=N)N)C(=O)N[C@@H](CCCCN)C(=O)N[C@@H](CCCCN)C(=O)O | circular dichroism | 20% TFE in PBS | 200 µM, pH 7.4, 25 °C | – | helicity | 19.1%

Excerpt of the above:
Structure (SMILES) | test | system | conditions | scale | quantity | result
CCc1c2c(nc3ccc(OC4OC(C(=O)O)C(O)C(O)C4O)cc13)-c1cc3c(c(=O)n1C2)COC(=O)C3(O)CC (stereo not shown) | – | human patients, plasma | intravenous, 3 mg/m^2 of parent drug | – | Cmax | 9 ng/mL
CC(C)C[C@H](NC(=O)[C@H](Cc1ccccc1)NC(=O)CNC(=O)C/C=C(\F)[C@@H](N)Cc1ccc(O)cc1)C(=O)O | – | BALB/c mice, brain | oral, 400 mg/kg | – | time to undetectable level | ≤ 10 min
